Experimental data collected from several papers.
Protocols differ between the studies behind these lines.

Compound	species	sample	route	dose	time	notes	Tmax [h]
CC(=O)N[C@H]1CC[C@H](NC(=O)CN2CCN(c3nncc(-c4ccc(C)cc4)n3)CC2)CC1	human	plasma	oral	5 mg		single dose, fasted, healthy volunteers	1.5
CNC(=O)c1ccccc1Nc1cc(Nc2ccc(N3CCOCC3)cc2OC)ncc1C(F)(F)F	BALB/c mouse	plasma	intraperitoneal	100 mg/kg		single dose	≤ 0.5
COc1cccc(-c2n[nH]c(SCc3ccccn3)n2)c1OC	Sprague-Dawley rat, both sexes	plasma	oral, diet	30 mg/kg/day	day 7		6
CCCC[C@H](NC(C)=O)C(=O)N[C@H]1CCC(=O)NC[C@@H](C(=O)N[C@@H](Cc2c[nH]c3ccccc23)C(N)=O)NC(=O)[C@H](CCCNC(=N)N)NC(=O)[C@@H](Cc2ccccc2)NC(=O)[C@H](Cc2c[nH]cn2)NC1=O	beagle dog, male	plasma	subcutaneous	1.5 mg/kg daily	day 1		1.1
C#C[C@]1(CO)O[C@@H](n2cnc3c(N)nc(F)nc32)C[C@@H]1O	human	plasma	oral	30 mg		single dose, fed	1.75
CCN1CCN(c2ccc(Nc3cc(N(C)C(=O)Nc4c(Cl)c(OC)cc(OC)c4Cl)ncn3)cc2)CC1	Crl:WI(Han) rat, juvenile male	plasma	oral gavage	0.3 mg/kg/day		postnatal day 17	3
C[C@@H]1CCC[C@H](n2cnc(-c3cc(Cl)ccc3-n3cc(Cl)nn3)cc2=O)c2cc(ccn2)-c2c(cnn2C(F)F)NC1=O	human	plasma	oral	60 mg		single dose, fasted, healthy volunteers	3
CCn1c2ccccc2c2cc(-n3nncc3-c3ccccc3)ccc21	female BALB/c mouse	spleen	intraperitoneal	10 mg/kg		single dose	0.5
Cc1nc2cccc(OCC(C)(C)C(=O)NC(C)C)c2c(N)c1C(=O)O	male Sprague-Dawley rat	plasma	dietary	60 mg/kg/day	day 90		6
CCCOc1ccc([C@H]2CNC(=O)N2c2ccc3[nH]cnc3c2)cc1	human	plasma	oral	50 mg		single dose, fasted	0.5
CS(=O)(=O)c1ccc(-c2cnc(N)c(-c3ccc(C(F)(F)F)nc3)c2)cc1	pregnant female Sprague-Dawley rat	plasma	oral	3 mg/kg/day	gestation day 6		4
CNc1nc(Nc2ccc(-n3cnc(C)n3)c(OC)c2)nc2c1CC[C@H]2c1ccc(F)cc1	human	plasma	oral	100 mg		single dose, healthy volunteers	4
O=C1C(=Cc2ccccn2)CNCC1=Cc1ccccn1	male mouse	plasma	intraperitoneal	25 mg/kg			≤ 0.5
Nc1ncc(-c2cnn(CCO)c2)c2scc(-c3ccc(NC(=O)Nc4cccc(F)c4)cc3)c12	human	plasma	oral	540 mg		patients	3.3

For quick reference, copied from above:
Compound	species	sample	route	dose	time	notes	Tmax [h]
CC(=O)N[C@H]1CC[C@H](NC(=O)CN2CCN(c3nncc(-c4ccc(C)cc4)n3)CC2)CC1	human	plasma	oral	5 mg		single dose, fasted, healthy volunteers	1.5
COc1cccc(-c2n[nH]c(SCc3ccccn3)n2)c1OC	Sprague-Dawley rat, both sexes	plasma	oral, diet	30 mg/kg/day	day 7		6
